{"sequences": {"note": "By UniProt entry, the sequences of proteins in these tests, tags left out. Residues count along the entry.", "UniProt Q8WQX9, 1-930": "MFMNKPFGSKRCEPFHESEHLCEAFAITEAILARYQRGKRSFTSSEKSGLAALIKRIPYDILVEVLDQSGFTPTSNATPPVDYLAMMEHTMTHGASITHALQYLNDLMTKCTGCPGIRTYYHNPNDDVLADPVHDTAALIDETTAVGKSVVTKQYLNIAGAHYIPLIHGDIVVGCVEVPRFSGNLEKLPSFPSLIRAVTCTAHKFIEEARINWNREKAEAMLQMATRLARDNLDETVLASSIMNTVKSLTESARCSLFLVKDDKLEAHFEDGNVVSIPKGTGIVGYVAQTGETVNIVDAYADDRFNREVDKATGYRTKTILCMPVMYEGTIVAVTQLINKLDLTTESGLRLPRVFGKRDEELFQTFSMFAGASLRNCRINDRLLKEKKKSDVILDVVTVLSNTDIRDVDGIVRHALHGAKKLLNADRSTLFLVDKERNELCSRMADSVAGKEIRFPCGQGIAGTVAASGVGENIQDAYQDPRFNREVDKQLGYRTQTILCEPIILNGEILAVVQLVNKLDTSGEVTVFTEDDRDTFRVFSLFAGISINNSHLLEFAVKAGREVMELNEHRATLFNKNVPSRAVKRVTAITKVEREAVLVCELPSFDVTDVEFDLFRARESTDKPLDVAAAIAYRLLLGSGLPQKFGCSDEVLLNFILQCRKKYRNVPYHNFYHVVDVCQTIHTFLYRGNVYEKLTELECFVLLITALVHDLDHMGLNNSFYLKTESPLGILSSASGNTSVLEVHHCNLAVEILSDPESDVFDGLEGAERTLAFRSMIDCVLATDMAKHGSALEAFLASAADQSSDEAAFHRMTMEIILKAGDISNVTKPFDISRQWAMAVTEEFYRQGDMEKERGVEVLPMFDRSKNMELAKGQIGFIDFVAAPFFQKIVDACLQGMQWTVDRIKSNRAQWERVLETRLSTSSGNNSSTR", "UniProt P19650, whole entry": "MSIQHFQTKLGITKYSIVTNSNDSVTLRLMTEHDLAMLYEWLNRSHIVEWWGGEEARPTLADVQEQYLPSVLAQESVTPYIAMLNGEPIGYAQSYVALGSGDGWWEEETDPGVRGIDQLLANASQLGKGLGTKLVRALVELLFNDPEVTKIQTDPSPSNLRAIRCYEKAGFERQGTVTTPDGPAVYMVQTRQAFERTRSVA", "UniProt P06802, 92-905 isoform 2 limits assumed": "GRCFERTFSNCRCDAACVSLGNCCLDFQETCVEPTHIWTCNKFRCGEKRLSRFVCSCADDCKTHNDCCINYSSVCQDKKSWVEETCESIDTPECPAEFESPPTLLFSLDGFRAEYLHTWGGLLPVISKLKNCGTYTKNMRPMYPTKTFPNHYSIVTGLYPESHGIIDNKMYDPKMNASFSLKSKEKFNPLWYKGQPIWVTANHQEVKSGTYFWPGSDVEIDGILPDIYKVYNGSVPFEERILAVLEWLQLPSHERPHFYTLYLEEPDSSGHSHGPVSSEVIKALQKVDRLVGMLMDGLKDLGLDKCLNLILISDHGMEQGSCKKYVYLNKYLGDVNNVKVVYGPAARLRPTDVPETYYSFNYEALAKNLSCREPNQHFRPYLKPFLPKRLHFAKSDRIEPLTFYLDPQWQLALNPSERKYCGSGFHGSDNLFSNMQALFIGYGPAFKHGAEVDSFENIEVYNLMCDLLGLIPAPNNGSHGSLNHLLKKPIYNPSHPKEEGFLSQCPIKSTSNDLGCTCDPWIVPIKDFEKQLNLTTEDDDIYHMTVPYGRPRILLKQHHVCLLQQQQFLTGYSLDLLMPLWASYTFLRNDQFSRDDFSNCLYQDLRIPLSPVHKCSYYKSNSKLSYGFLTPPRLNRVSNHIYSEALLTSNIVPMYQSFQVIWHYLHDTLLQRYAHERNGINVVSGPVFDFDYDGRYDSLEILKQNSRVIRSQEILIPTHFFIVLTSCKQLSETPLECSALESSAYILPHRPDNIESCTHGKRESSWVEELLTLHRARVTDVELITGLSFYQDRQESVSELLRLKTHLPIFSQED", "UniProt Q9NZ08, whole entry K380T, looked up": "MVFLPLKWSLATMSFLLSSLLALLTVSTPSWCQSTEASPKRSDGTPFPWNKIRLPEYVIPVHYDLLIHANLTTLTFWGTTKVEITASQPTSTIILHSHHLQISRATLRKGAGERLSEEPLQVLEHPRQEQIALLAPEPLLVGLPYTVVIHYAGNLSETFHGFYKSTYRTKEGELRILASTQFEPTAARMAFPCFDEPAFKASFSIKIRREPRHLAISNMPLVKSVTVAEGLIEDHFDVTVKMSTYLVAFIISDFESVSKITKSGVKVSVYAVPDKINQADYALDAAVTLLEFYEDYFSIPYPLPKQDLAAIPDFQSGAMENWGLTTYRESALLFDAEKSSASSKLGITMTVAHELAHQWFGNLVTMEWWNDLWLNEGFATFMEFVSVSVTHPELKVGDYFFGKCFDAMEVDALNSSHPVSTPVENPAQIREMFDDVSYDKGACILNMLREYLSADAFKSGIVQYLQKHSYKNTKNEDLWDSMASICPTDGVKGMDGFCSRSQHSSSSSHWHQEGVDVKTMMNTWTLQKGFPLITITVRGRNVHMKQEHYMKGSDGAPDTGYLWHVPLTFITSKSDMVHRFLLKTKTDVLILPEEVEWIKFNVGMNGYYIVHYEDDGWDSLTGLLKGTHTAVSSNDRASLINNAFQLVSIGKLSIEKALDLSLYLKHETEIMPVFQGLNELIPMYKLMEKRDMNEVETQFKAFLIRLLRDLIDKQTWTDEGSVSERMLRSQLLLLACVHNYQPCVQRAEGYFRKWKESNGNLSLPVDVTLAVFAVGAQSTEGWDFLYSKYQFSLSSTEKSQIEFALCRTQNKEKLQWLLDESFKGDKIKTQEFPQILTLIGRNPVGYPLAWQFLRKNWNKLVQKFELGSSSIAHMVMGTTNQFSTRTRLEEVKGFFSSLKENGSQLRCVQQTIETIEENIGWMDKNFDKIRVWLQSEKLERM", "UniProt P05067, 672-713 limits assumed": "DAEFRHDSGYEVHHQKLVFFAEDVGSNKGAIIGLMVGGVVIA", "UniProt Q06187, whole entry": "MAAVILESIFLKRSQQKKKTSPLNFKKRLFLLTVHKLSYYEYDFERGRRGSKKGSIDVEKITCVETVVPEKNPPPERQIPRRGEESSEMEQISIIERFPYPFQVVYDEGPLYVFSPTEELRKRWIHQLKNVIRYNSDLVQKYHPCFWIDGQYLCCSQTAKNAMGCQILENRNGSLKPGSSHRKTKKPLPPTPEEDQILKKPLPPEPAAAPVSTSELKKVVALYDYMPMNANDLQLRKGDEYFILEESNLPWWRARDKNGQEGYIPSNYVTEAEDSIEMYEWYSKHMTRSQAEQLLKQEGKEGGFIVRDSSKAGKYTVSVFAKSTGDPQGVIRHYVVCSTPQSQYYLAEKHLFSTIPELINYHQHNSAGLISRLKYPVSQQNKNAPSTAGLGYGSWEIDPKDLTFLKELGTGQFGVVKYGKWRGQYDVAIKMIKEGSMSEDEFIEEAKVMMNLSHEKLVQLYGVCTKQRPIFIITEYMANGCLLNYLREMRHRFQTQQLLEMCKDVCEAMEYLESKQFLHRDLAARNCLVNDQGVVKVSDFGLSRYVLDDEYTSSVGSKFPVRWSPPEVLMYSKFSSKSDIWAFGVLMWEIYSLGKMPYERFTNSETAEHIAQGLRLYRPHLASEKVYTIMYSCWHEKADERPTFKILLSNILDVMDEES"}, "data": "Assay results collected from several papers", "PDEB1": "Class 1 phosphodiesterase PDEB1 (PDEB1, Trypanosoma brucei, UniProt Q8WQX9)", "aacA4": "Aminoglycoside N(6')-acetyltransferase type 1 (aacA4, Klebsiella pneumoniae, UniProt P19650)", "note": "Lines come from different studies, so protocols differ. ± gives the spread as reported."}
{"Structure (SMILES)": "COc1cccc(Nc2c(C(N)=O)cnc3ccc(-c4ccc5cnn(C)c5c4)cc23)c1", "target": "PDEB1", "test": "enzyme activity, inhibitor", "conditions": "10 µM", "endpoint": "inhibition", "value": "84 ± 2.4%"}
{"Structure (SMILES)": "CCCC[C@H](CN)NC[C@@H]1CCCN1C[C@@H](CO)NC[C@@H](NCCC(C)c1ccccc1)c1ccccc1 (stereo partly shown)", "target": "aacA4", "test": "acetyltransferase activity", "conditions": "5 µM", "endpoint": "inhibition", "value": "> 70%"}
{"Structure (SMILES)": "COc1cc2ncnc(N3CCC(CCNS(N)(=O)=O)CC3)c2cc1OC", "target": "Ectonucleotide pyrophosphatase/phosphodiesterase family member 1 (Enpp1, Mus musculus, UniProt P06802)", "test": "inhibitor", "conditions": "together with: cGAMP substrate", "how to read": "baseline: pH 7.4 over pH 9, higher = weaker at pH 7.4", "endpoint": "Ki ratio", "value": "100 fold"}
{"Structure (SMILES)": "COc1ccc(C(=O)O)cc1S(=O)(=O)Nc1cc(C(F)(F)F)ccc1N1CCCCC1", "target": "Endoplasmic reticulum aminopeptidase 1 (ERAP1, Homo sapiens, UniProt Q9NZ08, K380T)", "test": "enzyme activity, inhibitor", "conditions": "concentration not given, together with: Leu-AMC substrate", "endpoint": "inhibition", "value": "~50%"}
{"Structure (SMILES)": "CN(C)c1cccc(Oc2cnc(Nc3ccccc3)nc2)c1", "target": "Amyloid-beta precursor protein (APP, Homo sapiens, UniProt P05067)", "test": "transmission electron microscopy", "conditions": "concentration not given, 26 h", "endpoint": "amyloid-beta 42 fibrils and oligomers", "value": "decreased"}
{"Structure (SMILES)": "C=CC(=O)Nc1cc(-n2c(=O)ccc3cnc4ccc(-c5cn[nH]c5)cc4c32)ccc1C", "target": "Tyrosine-protein kinase BTK (BTK, Homo sapiens, UniProt Q06187)", "test": "KinomeScan binding", "conditions": "1 µM", "endpoint": "remaining binding", "value": "0.85%"}
{"Structure (SMILES)": "O=c1ccn([C@@H]2O[C@H](COP(=O)(O)OP(=O)(O)OP(=O)(O)O)[C@@H](O)[C@]2(F)Br)c(=O)[nH]1", "target": "Genome polyprotein, NS5B polymerase (Hepatitis C virus genotype 2a, UniProt Q99IB8)", "test": "polymerase activity, inhibitor", "system": "Hepatitis C virus, genotype 2a", "how to read": "baseline: genotype 1b", "endpoint": "IC50 fold change", "value": 1.9}
{"Structure (SMILES)": "CC(C)(O/N=C(\\C(=O)NCB(O)O)c1csc(N)n1)C(=O)O", "target": "ADC-7 beta-lactamase (Acinetobacter baumannii, UniProt Q6DRA1)", "test": "ESI-MS intact protein", "conditions": "15 min, together with: enzyme 14 µM", "endpoint": "adduct mass", "value": "40600 Da"}
{"Structure (SMILES)": "CCCC[C@H](CN)NC[C@@H]1CCCN1C[C@@H](CO)NC[C@@H](NCCC12CC3CC(CC(C3)C1)C2)c1ccccc1", "target": "aacA4", "test": "acetyltransferase activity", "conditions": "5 µM", "endpoint": "inhibition", "value": "> 70%"}
{"Structure (SMILES)": "CCc1cc(-c2ccc3cnn(C)c3c2)cc2c(Nc3cccc(OC)c3)c(C(N)=O)cnc12", "target": "PDEB1", "test": "enzyme activity, inhibitor", "conditions": "10 µM", "endpoint": "inhibition", "value": "79 ± 8.9%"}
{"note": "Some of these lines once more:"}
{"Structure (SMILES)": "CCCC[C@H](CN)NC[C@@H]1CCCN1C[C@@H](CO)NC[C@@H](NCCC12CC3CC(CC(C3)C1)C2)c1ccccc1", "target": "aacA4", "test": "acetyltransferase activity", "conditions": "5 µM", "endpoint": "inhibition", "value": "> 70%"}
